Published values of several laboratories.
Compare with care: the assays were run in different laboratories.
Matrix: plasma
Route: oral

Compound = C#C[C@]1(CO)O[C@@H](n2cnc3c(N)nc(F)nc32)C[C@@H]1O; test system = human; setting = 30 mg, single dose, fasted; Cmax = 1070 nM
Compound = CNC(=O)c1ccc(-c2cnc3ncc(Cc4ccc5ncccc5c4)n3n2)cc1F; test system = human; setting = 600 mg twice daily, multiple doses, steady state, patients; Cmax = 4890 ng/mL
Compound = Nc1ncc(-c2cnn(CCO)c2)c2scc(-c3ccc(NC(=O)Nc4cccc(F)c4)cc3)c12; test system = human; setting = 80 mg, patients; Cmax = 115 ng/mL
Compound = CNc1nc(Nc2ccc(-n3cnc(C)n3)c(OC)c2)nc2c1CC[C@H]2c1ccc(F)cc1; test system = human; setting = 1200 mg, single dose, healthy volunteers; Cmax = 1600 ng/mL
Compound = C[C@H](N)C(=O)N1C[C@H](CCCB(O)O)[C@](N)(C(=O)O)C1; test system = human; setting = 150 mg twice daily, multiple doses, patients; Cmax = 3490 ng/mL
Compound = C[C@@H]1CCC[C@H](n2cnc(-c3cc(Cl)ccc3-n3cc(Cl)nn3)cc2=O)c2cc(ccn2)-c2c(cnn2C(F)F)NC1=O; test system = human; setting = 60 mg, single dose, fasted, healthy volunteers; Cmax = 337 ng/mL
Compound = O=C(c1nc2n(n1)[C@H](c1ccccc1)C[C@@H]2F)C1CC1; test system = human; setting = 75 mg, single dose, fasted, healthy volunteers; Cmax = 783 ng/mL
Compound = CCCOc1ccc([C@H]2CNC(=O)N2c2ccc3[nH]cnc3c2)cc1; test system = human; setting = 400 mg, single dose, fasted; Cmax = 2150 ng/mL
Compound = CS(=O)(=O)n1cc2c(n1)CN([C@H]1CO[C@H](c3cc(F)ccc3F)[C@@H](N)C1)C2; test system = male human; setting = 100 mg, single dose, fasted; Cmax = 2710 nM
Compound = COc1cccc(-c2ccc(NC(=O)C3=C(C(=O)O)CCC3)c(F)c2)c1; test system = male human; setting = 40 mg, single dose, fasted, healthy volunteers; Cmax = 7860 ng/mL
Compound = Nc1ccc(-c2nc([C@H]3CCc4cc(-c5cc(Cl)ccc5-n5cnnn5)cc(=O)n43)c(F)[nH]2)c(F)n1; test system = human; setting = 150 mg, single dose, fasted; Cmax = 1390 ng/mL
Compound = CNCc1ccc(-c2[nH]c3cc(F)cc4c3c2CCNC4=O)cc1; test system = human; setting = 160 mg, multiple doses, once daily, steady state, patients; Cmax = 288 ng/mL
Compound = CCCCCN1C[C@H](O)[C@@H](O)[C@H](O)[C@@H]1CO; test system = male human; setting = 1000 mg, single dose, fasted, healthy volunteers; Cmax = 8590 ng/mL

Some of these lines once more:
Compound = CS(=O)(=O)n1cc2c(n1)CN([C@H]1CO[C@H](c3cc(F)ccc3F)[C@@H](N)C1)C2; test system = male human; setting = 100 mg, single dose, fasted; Cmax = 2710 nM
Compound = C#C[C@]1(CO)O[C@@H](n2cnc3c(N)nc(F)nc32)C[C@@H]1O; test system = human; setting = 30 mg, single dose, fasted; Cmax = 1070 nM
